Published values from different studies.
Protocols differ between the studies behind these lines. “And” joins repeats or separate records; there may be more than shown.
Target: Protein kinase C epsilon type (PRKCE, Homo sapiens, UniProt Q02156)

`C=C1CCCCCCCCCC(CO)C1=O` (stereo not drawn) has a remaining signal of 100% (cell-free assay; 10 µM).
For `CN1CCN(Cc2ccc(NC(=O)c3cccc(C#Cc4cnc(N)c5ncccc45)c3)cc2C(F)(F)F)CC1`, the remaining binding was 65% (cell-free assay, competition with immobilised ligand; 0.5 µM).
With `CC(C)=CC1OC(C)(C)C2C=C3C(=O)C(Cl)=CC(O)C3C3C(O)C4OC4C(=O)C132` (stereo not drawn) the remaining binding was 53% (cell-free assay, competition with immobilised ligand; 10 µM).
With `NC(=O)C[C@H]1CCc2sc3ncnc(O[C@H]4CC[C@H](N5CCOCC5)CC4)c3c21` the inhibition was -7% (enzyme activity, inhibitor; 10 µM).
For `C=CC(=O)N1CCCC(n2c(=O)c3ncccc3n(Cc3ccc(Oc4ccccc4)cc3)c2=O)C1` (stereo not drawn), the remaining binding was 68% (cell-free assay, competition with immobilised ligand; 1 µM).
`COCC12C(=O)NC3C4(C(OC)CC1O)C1CC5(O)C(OC)C(O)C(OC(C)=O)(C1C5OC(=O)c1ccccc1)C3(O)C(OC)C24` (stereo not drawn) has a remaining activity of 84% and 85% (kinase activity, inhibitor, ProQinase kinase profiling; 25 µM; baseline: control).
For `O=C(Cc1ccc(OCc2ccccc2)cc1)NC1(C(=O)O)CCN(C(=O)c2ccc(-c3cccc(Cl)c3)cc2)CC1`, “activity vs control” read 103% (enzyme activity, inhibitor; 10 µM).
With `CNC1C[S+]2CC[S+]3CC[S+](C1)[Ru-4]321([N]=C=S)[n]2c3ccc(OC)cc3c3c4c(c5cc(F)c[n+]1c5c32)C(=O)NC4=O` (stereo not drawn) the remaining binding was 68% (KinomeScan; 0.1 µM; baseline: untreated).
`CCn1cc(C(=O)O)c(=O)c2c(N)c(F)c(NC3CCCCC3)cc21` gave an inhibition of 0% (kinase activity; 0.1 µM, added: ATP at Km).
With `CN1CC[C@@H](COc2cnc(C#N)cc2-c2ccn3nc(NC(=O)C4CC4)cc3c2)C1` the inhibition was -8% (enzyme activity, inhibitor; 1 µM).
With `Nc1ncc2c(n1)-c1c([nH]c3ccc(C4=CCOCC4)cc13)CCC2` the remaining binding was 85% (binding, competition with immobilised ligand; 1 µM).
`C=CC(=O)Nc1cccc(-c2cnc3[nH]cc(C(=O)NC(C)(C)C)c3n2)c1` has an inhibition of 11% (enzyme activity, inhibitor; 0.1 µM).
`C=CC(=O)N1Cc2nc(-c3cc(-c4cc(Cl)cnc4Cl)c(F)cc3F)n(-c3ccncn3)c2C1` has an inhibition of 5% (cell-free assay; 1 µM).
Under “activity vs control”, `CNC(=O)C[C@H](Cc1ccc(C#N)cc1)NC(=O)c1cc(-c2ccc(CN[C@H](C)c3ccc(C)cc3)o2)ccc1Cl` is recorded as 102% (enzyme activity, inhibitor; 1 µM).
With `Nc1ncc(-c2cc(-c3cnn(CC(F)(F)F)c3)ncc2F)nc1C(=O)NC1CNCC(F)C1` (stereo not drawn) the remaining activity was 92.7% (enzyme activity; 1 µM; baseline: DMSO control).
`COc1c(Cl)cccc1Nc1c(-c2ccncc2C#C[C@@]2(C)CCCN2C(=O)/C=C/CN(C)C)[nH]c2c1C(=O)NCC2` has a remaining binding of 81% (cell-free assay, competition with immobilised ligand; 3 µM).
`COc1cc(Nc2nccc(-c3cnn4nc(OC)ccc34)n2)cc(C(F)(F)F)c1` has a remaining binding of 87% (binding, competition with immobilised ligand; 1 µM).
`COc1ccc(NC(=O)Nc2ccc3c(c2)C(=O)N(C(C)CO)CC(C)C(CN(C)Cc2ccc4c(c2)OCO4)O3)cc1` (stereo not drawn) has a remaining binding of 100% (binding, competition with immobilised ligand; 10 µM).

Some of these lines once more:
`CCn1cc(C(=O)O)c(=O)c2c(N)c(F)c(NC3CCCCC3)cc21` gave an inhibition of 0% (kinase activity; 0.1 µM, added: ATP at Km).
